Published values collected from several papers.
MAP3K4: Mitogen-activated protein kinase kinase kinase 4 (MAP3K4, Homo sapiens, UniProt Q9Y6R4)
Sequence of UniProt Q9Y6R4 (whole entry, looked up): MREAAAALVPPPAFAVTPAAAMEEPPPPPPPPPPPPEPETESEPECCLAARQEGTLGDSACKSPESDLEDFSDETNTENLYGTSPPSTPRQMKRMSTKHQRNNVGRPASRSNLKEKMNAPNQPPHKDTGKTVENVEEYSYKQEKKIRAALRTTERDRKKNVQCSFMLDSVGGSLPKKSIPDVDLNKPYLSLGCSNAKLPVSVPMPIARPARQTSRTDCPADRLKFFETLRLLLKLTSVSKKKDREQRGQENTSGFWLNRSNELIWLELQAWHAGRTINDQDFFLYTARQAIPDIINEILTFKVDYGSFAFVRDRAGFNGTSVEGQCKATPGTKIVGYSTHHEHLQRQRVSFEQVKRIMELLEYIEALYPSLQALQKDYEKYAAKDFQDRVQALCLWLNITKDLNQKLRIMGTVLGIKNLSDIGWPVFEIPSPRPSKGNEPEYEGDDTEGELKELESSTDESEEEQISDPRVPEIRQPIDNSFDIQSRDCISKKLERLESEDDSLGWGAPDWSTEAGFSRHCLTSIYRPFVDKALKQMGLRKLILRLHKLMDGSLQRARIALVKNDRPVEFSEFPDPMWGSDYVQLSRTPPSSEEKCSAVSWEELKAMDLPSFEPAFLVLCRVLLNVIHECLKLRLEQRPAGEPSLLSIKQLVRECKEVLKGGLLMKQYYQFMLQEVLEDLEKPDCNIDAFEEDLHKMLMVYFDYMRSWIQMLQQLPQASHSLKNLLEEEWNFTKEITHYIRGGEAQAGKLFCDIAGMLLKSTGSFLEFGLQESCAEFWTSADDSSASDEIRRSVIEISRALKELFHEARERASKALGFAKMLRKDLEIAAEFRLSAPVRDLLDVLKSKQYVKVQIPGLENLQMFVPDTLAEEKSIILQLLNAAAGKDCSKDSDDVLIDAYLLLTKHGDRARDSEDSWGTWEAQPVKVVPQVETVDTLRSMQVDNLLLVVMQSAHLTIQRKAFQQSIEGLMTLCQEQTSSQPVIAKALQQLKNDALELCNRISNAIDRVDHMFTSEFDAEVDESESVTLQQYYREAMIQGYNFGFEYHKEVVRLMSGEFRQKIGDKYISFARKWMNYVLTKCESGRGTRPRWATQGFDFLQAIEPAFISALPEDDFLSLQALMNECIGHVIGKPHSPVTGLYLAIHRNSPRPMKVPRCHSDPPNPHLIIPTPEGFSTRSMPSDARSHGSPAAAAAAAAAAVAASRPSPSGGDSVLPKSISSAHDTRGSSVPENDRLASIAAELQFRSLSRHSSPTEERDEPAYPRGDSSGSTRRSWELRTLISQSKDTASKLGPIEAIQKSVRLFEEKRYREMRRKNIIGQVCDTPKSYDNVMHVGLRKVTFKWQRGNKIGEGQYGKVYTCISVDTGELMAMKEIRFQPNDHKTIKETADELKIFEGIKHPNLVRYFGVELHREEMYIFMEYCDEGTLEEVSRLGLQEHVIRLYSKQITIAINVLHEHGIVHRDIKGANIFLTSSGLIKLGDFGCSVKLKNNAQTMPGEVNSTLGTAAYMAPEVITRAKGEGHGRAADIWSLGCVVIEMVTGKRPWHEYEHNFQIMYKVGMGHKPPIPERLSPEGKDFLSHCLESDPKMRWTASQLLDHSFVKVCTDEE
Sequence of UniProt Q9Y5S2 (whole entry, looked up): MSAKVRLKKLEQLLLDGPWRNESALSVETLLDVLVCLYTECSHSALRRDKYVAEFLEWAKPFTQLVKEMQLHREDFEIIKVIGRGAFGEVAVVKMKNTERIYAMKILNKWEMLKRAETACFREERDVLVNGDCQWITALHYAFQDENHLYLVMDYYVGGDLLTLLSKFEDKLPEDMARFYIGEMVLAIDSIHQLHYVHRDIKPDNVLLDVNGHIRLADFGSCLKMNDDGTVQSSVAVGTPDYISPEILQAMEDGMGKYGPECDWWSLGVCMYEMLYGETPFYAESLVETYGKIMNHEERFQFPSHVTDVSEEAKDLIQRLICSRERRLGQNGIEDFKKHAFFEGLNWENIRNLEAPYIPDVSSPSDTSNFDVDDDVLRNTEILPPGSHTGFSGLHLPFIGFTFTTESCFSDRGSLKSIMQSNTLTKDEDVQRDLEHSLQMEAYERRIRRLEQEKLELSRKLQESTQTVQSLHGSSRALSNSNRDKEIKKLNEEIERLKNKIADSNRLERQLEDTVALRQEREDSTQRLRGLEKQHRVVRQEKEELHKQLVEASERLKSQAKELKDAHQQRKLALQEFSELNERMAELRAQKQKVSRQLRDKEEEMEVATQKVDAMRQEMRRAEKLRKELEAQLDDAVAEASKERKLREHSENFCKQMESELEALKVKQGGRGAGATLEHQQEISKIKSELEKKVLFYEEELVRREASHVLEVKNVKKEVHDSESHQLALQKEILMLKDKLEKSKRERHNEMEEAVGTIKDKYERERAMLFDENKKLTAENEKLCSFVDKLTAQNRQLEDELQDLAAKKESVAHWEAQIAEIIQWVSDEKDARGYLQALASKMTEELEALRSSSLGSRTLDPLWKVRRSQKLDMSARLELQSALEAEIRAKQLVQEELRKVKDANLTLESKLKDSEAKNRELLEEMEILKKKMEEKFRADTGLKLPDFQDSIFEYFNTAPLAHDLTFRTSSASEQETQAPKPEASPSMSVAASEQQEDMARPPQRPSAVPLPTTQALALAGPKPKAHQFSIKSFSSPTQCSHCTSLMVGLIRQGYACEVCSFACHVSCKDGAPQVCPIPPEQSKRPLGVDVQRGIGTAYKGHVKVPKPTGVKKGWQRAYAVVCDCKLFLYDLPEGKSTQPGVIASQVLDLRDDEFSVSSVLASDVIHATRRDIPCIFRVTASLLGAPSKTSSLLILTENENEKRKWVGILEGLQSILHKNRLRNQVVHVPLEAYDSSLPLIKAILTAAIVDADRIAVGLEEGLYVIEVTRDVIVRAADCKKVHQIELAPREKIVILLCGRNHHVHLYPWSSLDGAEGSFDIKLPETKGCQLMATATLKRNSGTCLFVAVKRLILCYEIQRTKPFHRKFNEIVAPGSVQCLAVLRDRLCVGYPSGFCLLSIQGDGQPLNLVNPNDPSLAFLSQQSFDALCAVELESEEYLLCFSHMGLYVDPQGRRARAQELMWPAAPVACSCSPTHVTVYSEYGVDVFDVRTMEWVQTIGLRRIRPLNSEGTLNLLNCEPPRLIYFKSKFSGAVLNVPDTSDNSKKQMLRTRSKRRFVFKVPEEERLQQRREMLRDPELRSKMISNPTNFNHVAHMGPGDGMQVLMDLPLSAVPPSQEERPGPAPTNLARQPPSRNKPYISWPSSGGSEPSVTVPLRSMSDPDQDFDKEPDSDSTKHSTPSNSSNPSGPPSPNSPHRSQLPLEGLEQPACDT
Sequence of UniProt P35348 (whole entry, looked up): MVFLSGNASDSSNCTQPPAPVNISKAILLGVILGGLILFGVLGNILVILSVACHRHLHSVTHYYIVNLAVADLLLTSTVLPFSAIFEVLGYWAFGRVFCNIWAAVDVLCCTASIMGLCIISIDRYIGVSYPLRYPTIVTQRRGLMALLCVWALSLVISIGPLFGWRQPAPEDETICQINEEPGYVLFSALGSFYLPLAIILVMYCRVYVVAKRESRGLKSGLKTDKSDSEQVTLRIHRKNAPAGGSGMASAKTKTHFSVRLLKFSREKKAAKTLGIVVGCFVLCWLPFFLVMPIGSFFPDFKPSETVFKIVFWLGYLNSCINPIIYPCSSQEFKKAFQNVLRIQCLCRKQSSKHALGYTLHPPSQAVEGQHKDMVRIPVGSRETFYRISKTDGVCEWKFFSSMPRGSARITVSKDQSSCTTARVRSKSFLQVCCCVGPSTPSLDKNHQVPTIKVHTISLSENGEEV

Structure (SMILES) | target or system | assay | system | setting | quantity | result
COCC1=N[C@@]2(O)[C@H](C(=O)N(C)OC)[C@@H](c3ccccc3)[C@]3(c4ccc(OC)cc4)Oc4cc(OC)cc(OC)c4[C@]23N1 | – | metabolic stability | male Sprague-Dawley rat, liver microsomes | 1 µM, pH 7.4 | microsomal CLint | 18.6 µL/min/mg
CCCCCOc1ccc(C(=O)c2cccc3ccccc23)c2ccccc12 | – | – | mouse, brain | intraperitoneal, 3 mg/kg | unbound tissue/plasma ratio | 0.016
[2H]c1c([2H])c([C@]2([2H])CCCN2C(=O)C(C)(C)Oc2ccc3cn[nH]c3c2)c([2H])c([2H])c1C([2H])([2H])[2H] | MAP3K4 | binding, competition with immobilised ligand | – | 1 µM | remaining binding | 73%
C[C@]12CC[C@H]3[C@@H](CC=C4CC(O)CC[C@@]43CO)[C@@H]1CCC2O (stereo partly shown) | – | – | rat, plasma | intraperitoneal, 20 mg/kg | half-life | 1.39 h
C/C=C1/CN2CC[C@@]34c5ccccc5N(C)[C@]35OC[C@@]4(C(=O)OC)[C@H]1C[C@H]25 | – | – | Caco-2 | pH 7.4 | Papp A→B | 29 ×10⁻⁶ cm/s
COc1ccc([C@@]23Oc4cc(OC)cc(OC)c4[C@@]24NC(C)=N[C@@]4(O)[C@H](C(=O)N(C)OC)[C@H]3c2ccccc2)cc1 | – | metabolic stability | mouse, liver microsomes | – | microsomal CLint | 272 µL/min/mg
Nc1ncc(-c2nc(N3CCOCC3)nc(N3CCOCC3)n2)c(C(F)F)n1 | ADRA1A (Homo sapiens, UniProt P35348) | cell-free assay, radioligand | – | 10 µM | remaining signal | 94.4%
COc1ncccc1-c1cnn2ccc(N3CCN(C(=O)OC(C)C)CC3)nc12 | CDC42BPB (Homo sapiens, UniProt Q9Y5S2) | binding, competition with immobilised ligand | – | 1 µM | remaining binding | 90%
CC[C@H](C)[C@H](NC(=O)CN)C(=O)NCC(=O)N[C@@H](C)C(=O)N[C@H](C(=O)N[C@@H](CC(C)C)C(=O)N[C@@H](CCCCN)C(=O)N[C@H](C(=O)N[C@@H](CC(C)C)C(=O)N[C@H](C(=O)N[C@H](C(=O)NCC(=O)N[C@@H](CC(C)C)C(=O)N1CCC[C@H]1C(=O)N[C@@H](C)C(=O)N[C@@H](CC(C)C)C(=O)N[C@H](C(=O)N[C@@H](CO)C(=O)N[C@@H](Cc1c[nH]c2ccccc12)C(=O)N[C@H](C(=O)N[C@@H](CCCCN)C(=O)N[C@@H](CCCNC(=N)N)C(=O)N[C@@H](CCCCN)C(=O)N[C@@H](CCCNC(=N)N)C(=O)N[C@@H](CCC(N)=O)C(=O)N[C@@H](CCC(N)=O)C(N)=O)[C@@H](C)CC)[C@@H](C)CC)[C@@H](C)O)[C@@H](C)O)C(C)C)C(C)C | – | chemical stability, HPLC | human, serum | 300 µM, 24 h | compound remaining | ~23%
COc1ccc2c(c1)[C@]13CCCC[C@@H]1[C@H](C2)N(C)CC3 | – | – | Sprague-Dawley rat, hepatocytes | 2 µM, 4 h, pH 7.4 | fraction unbound | 1
Cc1nn(C)cc1-c1nc2c(N3CCN(Cc4ccc(Cl)cc4)CC3)c(Cl)cnc2[nH]1 | MAP3K4 | binding, competition with immobilised ligand | – | 1 µM | remaining binding | 94%
COc1ccc([C@@]23Oc4cc(OC)cc(OC)c4[C@@]24N=C(C2CC2)N[C@@]4(O)[C@H](C(=O)N(C)OC)[C@H]3c2ccccc2)cc1 | – | metabolic stability | male CD-1 mouse, liver microsomes | 1 µM, pH 7.4 | microsomal CLint | 924 µL/min/mg
Cc1ncc2n1-c1ccc(Cl)cc1C(c1ccccc1F)=NC2 | – | – | Sprague-Dawley rat, hepatocytes | 2 µM, 4 h, pH 7.4 | fraction unbound | 1

A few entries again:
Structure (SMILES) | target or system | assay | system | setting | quantity | result
Nc1ncc(-c2nc(N3CCOCC3)nc(N3CCOCC3)n2)c(C(F)F)n1 | ADRA1A (Homo sapiens, UniProt P35348) | cell-free assay, radioligand | – | 10 µM | remaining signal | 94.4%
C[C@]12CC[C@H]3[C@@H](CC=C4CC(O)CC[C@@]43CO)[C@@H]1CCC2O (stereo partly shown) | – | – | rat, plasma | intraperitoneal, 20 mg/kg | half-life | 1.39 h
